Measurements from different studies.
Every numbered part comes from another study and shows a few of its results, in no order.

Sample 1
Target: Centromere-binding protein 1, full length, N-terminal tag (CBF1, Saccharomyces cerevisiae, UniProt P17106, residues 1-351)
UniProt P17106, sequence (whole entry, looked up): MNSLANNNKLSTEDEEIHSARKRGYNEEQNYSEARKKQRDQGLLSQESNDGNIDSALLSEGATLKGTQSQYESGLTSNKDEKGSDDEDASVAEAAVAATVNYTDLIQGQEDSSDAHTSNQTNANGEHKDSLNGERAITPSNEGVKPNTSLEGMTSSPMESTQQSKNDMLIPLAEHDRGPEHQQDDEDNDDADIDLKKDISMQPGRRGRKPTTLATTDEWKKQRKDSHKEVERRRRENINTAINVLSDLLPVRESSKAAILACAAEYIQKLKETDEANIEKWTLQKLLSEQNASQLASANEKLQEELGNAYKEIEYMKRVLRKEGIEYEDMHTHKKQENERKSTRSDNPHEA
Method: protein-binding microarray
Molecule type: double-stranded DNA, one strand shown
Matrix: in vitro
Concentration: 0.8 µM
Setting: whole 60-bp probe, no competitor
Reading: higher = stronger binding
`GAAATAGACAAAAAAAACATCATGAATAAAAAATAGGTCTTGATTCGCTTGACGCTGCTG` has a fluorescence intensity of 547 a.u.
`GAATATCATTTTCCTGATGACCTTTGACTGCTCTAGGTCTTGATTCGCTTGACGCTGCTG` has a fluorescence intensity of 553 a.u.
The fluorescence intensity of `CTAGAAATGAAAGATCACGGGCTACGAAAAGCCTTCGTCTTGATTCGCTTGACGCTGCTG` is reported as 1610 a.u.

Sample 2
Target: Sal-like protein 4, full length isoform A (SALL4, Homo sapiens, UniProt Q9UJQ4, residues 1-1053)
UniProt Q9UJQ4, sequence (whole entry, looked up): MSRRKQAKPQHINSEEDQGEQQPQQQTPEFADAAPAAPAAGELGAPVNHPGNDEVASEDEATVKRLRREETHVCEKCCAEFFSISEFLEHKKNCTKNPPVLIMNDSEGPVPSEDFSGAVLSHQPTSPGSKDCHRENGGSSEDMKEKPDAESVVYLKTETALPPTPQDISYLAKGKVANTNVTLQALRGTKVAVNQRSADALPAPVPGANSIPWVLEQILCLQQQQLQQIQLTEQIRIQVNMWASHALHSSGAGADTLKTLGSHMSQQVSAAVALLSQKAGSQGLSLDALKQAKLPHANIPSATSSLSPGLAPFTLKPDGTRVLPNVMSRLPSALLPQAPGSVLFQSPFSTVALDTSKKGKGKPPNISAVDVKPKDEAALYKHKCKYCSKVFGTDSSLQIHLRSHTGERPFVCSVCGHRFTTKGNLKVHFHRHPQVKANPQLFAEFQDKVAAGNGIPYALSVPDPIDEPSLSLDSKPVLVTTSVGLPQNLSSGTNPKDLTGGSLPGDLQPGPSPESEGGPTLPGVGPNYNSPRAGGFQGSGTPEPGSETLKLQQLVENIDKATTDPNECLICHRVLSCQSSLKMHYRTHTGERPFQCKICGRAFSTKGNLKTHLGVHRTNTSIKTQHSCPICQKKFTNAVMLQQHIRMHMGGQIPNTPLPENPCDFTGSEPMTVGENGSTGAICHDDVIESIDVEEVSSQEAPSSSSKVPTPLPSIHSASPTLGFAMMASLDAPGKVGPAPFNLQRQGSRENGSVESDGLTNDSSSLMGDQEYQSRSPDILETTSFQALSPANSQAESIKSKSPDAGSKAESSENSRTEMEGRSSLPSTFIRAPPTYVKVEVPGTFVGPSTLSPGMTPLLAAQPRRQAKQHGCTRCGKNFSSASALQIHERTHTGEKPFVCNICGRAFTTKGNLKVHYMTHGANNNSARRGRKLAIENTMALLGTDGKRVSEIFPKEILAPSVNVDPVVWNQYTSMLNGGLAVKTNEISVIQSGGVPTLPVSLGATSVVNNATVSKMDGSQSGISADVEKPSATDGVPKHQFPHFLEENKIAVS
Method: universal PBM
Molecule type: double-stranded DNA, one strand shown
Matrix: in vitro
Concentration: 600 nM
Setting: 8-mer, flanks averaged, mean of replicates
Reading: higher = stronger binding
`AGGCAACT` gave an E-score of 0.092.
`TAATGCAA` gave an E-score of 0.284.
With `CGCCTGTC` the E-score was -0.336.
The E-score of `CGTGAGCC` is reported as -0.282.

Sample 3
Target: Protein max, full length (MAX, Homo sapiens, UniProt P61244-2, residues 1-151)
Method: protein-binding microarray
Molecule type: double-stranded DNA, one strand shown
Matrix: in vitro
Concentration: not given
Setting: k-mer, scored over probes, only values ≥0.25
Reading: higher = stronger binding
`ACGCGCAA` has an E-score of 0.251.
`GCACGTGC` gave an E-score of 0.496.
`ATAGCGTG` has an E-score of 0.394.

Further values, each from its own experiment
The fold induction of `PhoQ, residues 284 288 289 292 302 303 DDMDFR` is reported as 0.832 (PhoP, residues 12 14 15 18 19 LHSVQ (Escherichia coli, UniProt P23836); Sort-seq, item: YFP reporter; E. coli; PhoQ-PhoP variant library, added: 10 µM Mg2+; relative to: high Mg2+ state, higher = stronger signaling).

Repeated from above (sample 2):
`TAATGCAA` gave an E-score of 0.284.
